# Measured values pooled from the literature.
# Lines come from different studies, so protocols differ. “And” joins repeats or separate records; there may be more than shown. ± gives the spread as reported.
Structure (SMILES),cell line,test,setting,scale,measurement,value
Nc1ncnc2c1ncn2[C@@H]1O[C@H](CO)[C@@H](O)[C@H]1O,activated human T cells,measured: adenosine,50 µM,relative to: DMSO,log2 fold change,1.1 and 2
O=C(O)C[C@H](O)C[C@H](O)/C=C/c1c(C2CC2)nc2ccccc2c1-c1ccc(F)cc1,BT-12,"cell viability, MTT","10 µM, 72 h",,inhibition,93.5%
[NH2][Pt]([NH2])([Cl])[Cl],WiDr,"cell growth, sulforhodamine B",,,GI50,26 ± 4 µM
Cc1cc(C2CCCCC2)n(O)c(=O)c1,BT-12,"cell viability, MTT","10 µM, 72 h",,inhibition,87.2%
COc1cc2nccc(Oc3ccc(NC(=O)NC4CC4)c(Cl)c3)c2cc1C(N)=O,A549 and H460 (LKB1-null),Western blot,"concentration not given, 1 h",,AMPK phosphorylation,no effect
O=C(CCCCCCC(=O)Nc1ccc([C@H]2O[C@@H](CSc3nc(-c4ccccc4)c(-c4ccccc4)o3)C[C@@H](c3ccc(CO)cc3)O2)cc1)NO,HBL-1,,"1 µM, 120 h",,viability,78.9%
O=c1[nH]nc(OCCCc2ccc(Cl)cc2)c(NCc2cccnc2)c1Br,HEK293T,"RNA-seq, measured: TRIB3 mRNA","10 µM, 6 h",relative to: vehicle,log2 fold change,0.79
COc1cnc2cccc(N3CCc4c(cc(Cn5ccnc5C)cc4-c4cn(C)nc4C(F)(F)F)C3=O)c2c1,OCI-Ly7,"cell growth, inhibitor",120 h,,EC50,> 30 µM
CC/C(=N\NC(=O)NCc1cccc(O)c1)c1ccc(O)c(C)c1O,SK-OV-3,"gene expression, microarray, measured: DRAXIN","10 µM, 24 h",relative to: DMSO,log ratio,-4.27
CC1(C)CC[C@]2(C(=O)O)CC[C@]3(C)[C@H](C(=O)C=C4[C@@]5(C)C=C(C#N)C(=O)C(C)(C)[C@@H]5CC[C@]43C)[C@@H]2C1,SH-SY5Y Neh2-luc reporter,,"concentration not given, 3 h",relative to: background,reporter activation,> 20 fold
Cc1c(C(=O)O)ccc2c3n(nc12)[C@@H]1[C@H](C3)N(CC2CC2)[C@@]2(C(=O)Nc3cc(Cl)ccc32)[C@H]1c1cccc(Cl)c1F,MC-38 (TP53 mutant),"cell proliferation, alamarBlue",72 h,,IC50,9.78 µM
O=C(N[C@@H](CSCc1ccc([N+](=O)[O-])cc1)C(=O)NO)c1ccccc1,NCI-H1573,"cell viability, MTT","ferroptosis rescue, added: liproxstatin-1",relative to: with over without liproxstatin-1,fold shift in potency,36 fold
O=C(/C=C/C=C/C=C/C1CCCCC1)NC1=C[C@@](O)(/C=C/C=C/C=C/C(=O)NC2=C(O)CCC2=O)[C@@H]2O[C@@H]2C1=O,k029ax,"cell growth, inhibitor, CellTiter-Glo luminescence",78 h,relative to: day 0 cell count,GI50,17.4 µM
CC(C)C[C@H](NC(=O)[C@H](Cc1ccccc1)C[C@@H](O)[C@H](Cc1ccccc1)NC(=O)OC(C)(C)C)C(=O)N[C@@H](Cc1ccccc1)C(N)=O,N2a expressing NotchΔE-myc,"gamma-secretase Notch cleavage, Western blot","concentration not given, 24 h",,NICD production,inhibited
O=C(O)CC[C@H](NC(=O)N[C@@H](CCCCNC(=O)CCCCCCC(=O)NCCCC[C@@H](NC(=O)[C@H](CCC(=O)O)NC(=O)[C@H](CCC(=O)O)NC(=O)CCC(=O)NCCCN1CC[S][Tc]2(=[O])[S]CC[N]2CC1)C(=O)O)C(=O)O)C(=O)O (stereo partly shown) [technetium-99m labelled],LNCaP,,"25 nM, 1 h, 4 °C",,surface-bound activity,2.5 ± 0.38 %AD/mg protein
Ic1cccc(CSc2nnc(-c3ccncc3)o2)c1,HeLa expressing Ub(G76V)-GFP,"Ub(G76V)-GFP degradation, cycloheximide chase",12 µM,,inhibition,19%
CC[C@H]1CN2CCc3cc(OC)c(OC)cc3[C@@H]2C[C@@H]1C[C@H]1NCCc2cc(OC)c(OC)cc21,BT-12,"cell viability, MTT","10 µM, 72 h",,inhibition,95.8%
Cc1nc2cc3nc(-c4cccs4)cnc3cc2n1C,HeLa expressing Ub(G76V)-GFP,"Ub(G76V)-GFP degradation, inhibitor, cycloheximide chase",12 µM,,inhibition,32%
C#CCNS(=O)(=O)c1ccc(CCN(Cc2cc(Cl)ccc2OCCC)C(=O)c2ccc(F)cc2)cc1,J774A.1,ELISA,"concentration not given, 16 h, added: LPS 1 µg/mL",,TNF-alpha level,no inhibition
COc1cc2ncnc(Nc3ccc(Oc4ccccc4)cc3C)c2cc1OC.O=C(O)C(F)(F)F,NCI-H2087 (BRAF L597V),cell viability,"concentration not given, 72 h, added: trametinib",direction not given,Bliss synergy score,-121%
CO[C@@]12[C@H](COC(N)=O)C3=C(C(=O)C(C)=C(N)C3=O)N1C[C@@H]1N[C@@H]12,BT-12,"cell viability, MTT","10 µM, 72 h",,inhibition,94.1%
Cc1cc(Nc2ccc(NC(=O)c3ccc(Nc4ccnc5ccccc45)cc3)cc2)nc(N)n1,HBL-1,,"1 µM, 120 h",,viability,0.343%
Nc1cccc2c1C(=O)N(C1CCC(=O)NC1=O)C2=O (stereo not shown),RPMI-8226,"flow cytometry, measured: CD81",concentration not given,relative to: comparator compound alone,surface marker level,160%
O=C1Nc2ccccc2/C1=C1/Nc2ccccc2/C1=N\OCC(O)CO (stereo not shown),HeLa expressing Ub(G76V)-GFP,"Ub(G76V)-GFP degradation, cycloheximide chase",12 µM,,inhibition,10%
C#Cc1cccc(Nc2ncnc3cc(OC)c(OCCCCCCC(=O)NO)cc23)c1,HBL-1,,"0.1 µM, 120 h",,viability,128%
CN([C@@H](Cc1ccc(OS(=O)(=O)c2cccc3cnccc23)cc1)C(=O)N1CCN(c2ccccc2)CC1)S(=O)(=O)c1cccc2cnccc12,HeLa expressing Ub(G76V)-GFP,"Ub(G76V)-GFP degradation, cycloheximide chase",12 µM,,inhibition,9%
C=CC(=O)N1CCCN(C(=O)c2cc(Sc3cnc(NC(=O)C4CC4)s3)c(C)cc2OC)C[C@H]1C,human CD4 T cells,"MSD, measured: IL-4, IL-5, IL-13","3 days, added: TCR stimulation",,Th2 cytokine production,decreased
CNC(=O)c1c(F)cccc1Nc1nc(Nc2cc3c(cc2OC)CCN3C(=O)CN(C)C)nc2[nH]ccc12,hiPSC cardiomyocytes,CellTiter-Glo,"concentration not given, 24 h",relative to: vehicle,ATP level,73.7%
C=CC(=O)N1[C@@H](c2ccc3c(c2)OCO3)c2[nH]c3ccccc3c2C[C@H]1C(=O)NC,rat DRG neurons,,"10 µM, 48 h, added: vincristine 40 nM",,neuron degeneration,23.1% and 19.2%
O=C(C[C@@H](C(F)F)n1ccc(F)n1)N1CCC(O)(Cn2cnc3c(cnn3-c3ccc(F)cc3)c2=O)CC1,CHP-212 resistant cells (pooled),PI flow cytometry,"0.1 µM, 24 h",,cells in G1 phase,73% and 74.1% and 70.9%
CC[S+]([O-])c1nc(-c2ccccc2)cc(C(F)(F)F)n1 (stereo not shown),HeLa Kyoto,"RelA nuclear import, high content imaging","0.5 µM, 3 h, added: 1 µM PMA, 60 min",,cells with nuclear RelA,66.2% and 79.7%
COc1ccc(C[C@H](NC(=O)[C@H](C)NC(=O)CN2CCOCC2)C(=O)N[C@@H](Cc2ccccc2)C(=O)C2(C)CO2)cc1 (stereo in doubt),BT-12,"cell viability, MTT","10 µM, 72 h",,inhibition,95.1%
Cn1cc(Nc2nccc(-c3ccc4c(c3)CN(C3COC3)CC[C@H]4NC(=O)c3cn(C(C)(C)C)nn3)n2)cn1,mouse splenic B cells,measured: ErbB4 signalling,"30 mg/kg, IgD-activated in vivo","relative to: vehicle, direction not given",pathway activation z-score,3
C=CC1=C(C)c2cc3[n-]c(cc4nc(cc5[n-]c(cc1n2)c(C)c5C=C)C(C)=C4CCC(=O)O)c(CCC(=O)O)c3C.[Zn+2],SH-SY5Y,"RNA-seq, measured: UBASH3B mRNA","5 µM, 5 h",relative to: untreated cells,fold change,2.93
CCn1cc(-c2cc(Cn3ccnc3)cc3c2CCN([C@H](c2cc(OC)ccn2)C2CC2)C3=O)c(C(F)(F)F)n1,EOL1,"cell growth, inhibitor",120 h,,EC50,1.14 µM
COc1cc2c(NC3CCN(C(C)C)CC3)nc(N3CCC(F)(F)CC3)nc2cc1OCCCN1CCCC1,HBL-1,,"0.5 µM, 120 h",,viability,120%
CC(=O)Nc1cccc(-n2c(=O)n(C3CC3)c(=O)c3c(Nc4ccc(I)cc4F)n(C)c(=O)c(C)c32)c1,NCI-H2087 (BRAF L597V),,1.56 nM,relative to: DMSO,fractional effect,0.119
O=c1oc2c(O)c(O)cc3c(=O)oc4c(O)c(O)cc1c4c23,HBL-1,,"1 µM, 120 h",,viability,95.9%
N#CC(c1ccnc(NCCc2cccnc2)n1)c1nc2ccccc2s1 (stereo not shown),HeLa expressing Ub(G76V)-GFP,"Ub(G76V)-GFP degradation, cycloheximide chase",12 µM,,inhibition,86%
CNC(=O)c1ccc(Nc2ncc(C(F)(F)F)c(NCc3nccnc3N(C)S(C)(=O)=O)n2)cc1,BT-12,"cell viability, MTT","10 µM, 72 h",,inhibition,93.5%
CC(C)C[C@@H](C=O)NC(=O)[C@H](CC(C)C)NC(=O)[C@H](CC(C)C)NC(=O)OCc1ccccc1,HeLa expressing Ub(G76V)-GFP,"Ub(G76V)-GFP degradation, cycloheximide chase",0.156 µM,relative to: DMSO,remaining activity,58.5%
CCCCc1oc2ccc(NS(C)(=O)=O)cc2c1C(=O)c1ccc(OCCCN(CCCC)CCCC)cc1,human embryonic stem cell aggregates,"mRNA level, microarray, measured: LIX1","0.5 µM, 120 h","relative to: untreated, up-regulated",fold change,4 fold
Cn1cc(-c2ccc(-c3cncc(Cl)c3N3CCC4(CCNC4=O)CC3)cc2)cn1,COLO 205,"gene expression, microarray, measured: AK4 mRNA","concentration not given, 2 h",relative to: untreated cells,log2 fold change,2.18
COc1cc(/C=C/C(=O)N2CCC=CC2=O)cc(OC)c1OC,MDA-MB-468,"quantitative RT-PCR, measured: MAPK10","30 µM, 8 h",relative to: untreated cells,mRNA level,87.2 ± 49.8%
CCn1c(-c2nonc2N)nc2c(C#CC(C)(C)O)ncc(OC[C@H]3CCCNC3)c21,UACC-903,immunoblot,"concentration not given, 1 h, added: TNF-α 5 min",,IκB phosphorylation,no inhibition
Oc1ccc(Nc2nc(-c3ccc(Cl)cc3)cs2)cc1,HeLa expressing Ub(G76V)-GFP,"Ub(G76V)-GFP degradation, cycloheximide chase",12 µM,,inhibition,25%
O=C(NO)c1cccc(C(=O)NCCc2ccccc2)c1,HBL-1,,"0.1 µM, 120 h",,viability,122%
Cc1cc(Nc2ncc(Cl)c(Nc3ccccc3S(=O)(=O)C(C)C)n2)c(OC(C)C)cc1C1CCNCC1,CLB-GE,"phosphoproteomics LC-MS/MS, measured: PDZD11 phosphorylation","200 nM, 60 min",relative to: untreated,log2 fold change,-3.36
O=C1Nc2ccc(Br)cc2/C1=C/c1cc2c([nH]1)CCCC2,HeLa expressing Ub(G76V)-GFP,"Ub(G76V)-GFP degradation, cycloheximide chase",12 µM,,inhibition,100%
O=C1CCc2c(ccc3ccccc23)O1,HBL-1,,"1 µM, 120 h",,viability,102%
CCn1cc(-c2cc(Cn3ccoc3=N)cc3c2CCN([C@@H](C)c2cc(OC)ccn2)C3=O)c(C(F)(F)F)n1,SNU-886,"cell growth, inhibitor",120 h,,EC50,3.82 µM
Cc1cn([C@H]2C[C@H](O)[C@@H](CO)O2)c(=O)nc1N,HBL-1,,"0.1 µM, 120 h",,viability,125%
CCN1CCN(Cc2ccc(Nc3ncc(F)c(-c4cc(F)c5nc(C)n(C(C)C)c5c4)n3)nc2)CC1.CS(=O)(=O)O,BT-12,"cell viability, MTT","10 µM, 72 h",,inhibition,80.6%
CCC/N=C1\S/C(=C\c2ccc(OC[C@H](O)CO)c(Cl)c2)C(=O)N1c1ccccc1C,human primary astrocytes,"single-cell RNA-seq, measured: SERPINE1 mRNA","concentration not given, 24 h, added: cytokine stimulation",relative to: cytokine alone,log2 fold change,0.656
CC(Nc1nc(N2CCCC2)nc2ccccc12)c1ccccc1 (stereo not shown),HeLa Kyoto,"RelA nuclear import, high content imaging","0.16 µM, 3 h, added: 1 µM PMA, 60 min",,cells with nuclear RelA,82.9% and 83.7%

# Excerpt of the above:
Structure (SMILES),cell line,test,setting,scale,measurement,value
O=C(NO)c1cccc(C(=O)NCCc2ccccc2)c1,HBL-1,,"0.1 µM, 120 h",,viability,122%
CN([C@@H](Cc1ccc(OS(=O)(=O)c2cccc3cnccc23)cc1)C(=O)N1CCN(c2ccccc2)CC1)S(=O)(=O)c1cccc2cnccc12,HeLa expressing Ub(G76V)-GFP,"Ub(G76V)-GFP degradation, cycloheximide chase",12 µM,,inhibition,9%
N#CC(c1ccnc(NCCc2cccnc2)n1)c1nc2ccccc2s1 (stereo not shown),HeLa expressing Ub(G76V)-GFP,"Ub(G76V)-GFP degradation, cycloheximide chase",12 µM,,inhibition,86%
CNC(=O)c1c(F)cccc1Nc1nc(Nc2cc3c(cc2OC)CCN3C(=O)CN(C)C)nc2[nH]ccc12,hiPSC cardiomyocytes,CellTiter-Glo,"concentration not given, 24 h",relative to: vehicle,ATP level,73.7%
Cc1nc2cc3nc(-c4cccs4)cnc3cc2n1C,HeLa expressing Ub(G76V)-GFP,"Ub(G76V)-GFP degradation, inhibitor, cycloheximide chase",12 µM,,inhibition,32%
